Experimental data from different studies.
Each numbered part is a random draw from the data of one study; scales do not carry over between parts.

Sample 1
Cell line: HEK-293T-ACE2-TMPRSS2
Technique: cell count
Concentration: 10 µM
With CCS(=O)(=O)c1ncc(Cl)c(C(=O)Nc2ccc(C(=O)OC)cc2)n1 the viability was 71%.
CS(=O)(=O)c1ncc(CN2CCCCC2c2nccs2)n1CCCc1ccccc1 (centres unmarked) has a viability of 110%.
Cc1cc(C2CCCN2Cc2cccc(C(=O)Nc3nccs3)c2)no1 (centres unmarked) gave a viability of 85%.
For Cc1cc2oc(=O)cc(Cn3ncc(Cl)c(Cl)c3=O)c2cc1C(C)C, the viability was 73%.
For CCOC(=O)N1CCN(C2CCCN(C(=O)c3cc(C)nc(C)n3)C2)CC1 (centres unmarked), the viability was 114%.
NC(=O)NC(CC(=O)NCc1ccc(Cl)cc1Cl)c1cccs1 (centres unmarked) gave a viability of 80%.
The viability of COc1cc(C=C2COC/C(=C\c3cc(OC)c(OC)c(OC)c3)C2=O)cc(OC)c1OC is reported as 80%.
The viability of O=C(NCc1ccc2c(c1)OCO2)c1nc(S(=O)(=O)Cc2ccccc2)ncc1Cl is reported as 76%.
COc1cccc2c1OCC(C(=O)NCCSc1nnnn1C)C2 (centres unmarked) has a viability of 86%.
For O=C1CN(c2ncnc3sc4c(c23)CCCC4)CCN1, the viability was 97%.
With CC(c1cccc(-c2ncc(F)cn2)c1)N(C)C (centres unmarked) the viability was 81%.
With CCOCC(=O)N1CC(F)(F)C[C@H]1c1nc(C(=O)NC)no1 the viability was 99%.
COC[C@@H]1CN(C(=O)c2ccc3[nH]ccc3c2)C[C@H]1c1nc(C)no1 gave a viability of 100%.
O=C(Cn1cc2ccccc2n1)N1CCCC(Nc2cccc(F)c2)C1 (centres unmarked) has a viability of 108%.
The viability of COc1ccc(S(=O)(=O)CCc2noc(C(=O)N3CCC4(CC3)OCCO4)n2)cc1 is reported as 109%.
For Cn1cnnc1S/C=C/C(=O)c1ccc(F)cc1, the viability was 77%.
With CNC(=O)CC1C(=O)NCCN1Cc1c(C)cc(C)cc1-n1cccn1 (centres unmarked) the viability was 87%.
CC(C)CCNC(=O)c1cccc(Nc2ccc(-c3ccccc3)nn2)c1 gave a viability of 71%.
The viability of CC(C)Oc1ccc(C(=O)Nc2nc3c(s2)CN(Cc2ccccc2)CC3)cc1 is reported as 73%.
Cc1nn(C)c2c(=O)n(C(C)C(=O)Nc3ccc(N4CCOCC4)cc3)ccc12 (centres unmarked) gave a viability of 98%.
With O=C(O)c1cnc(/C=C/c2csc(-c3ccco3)n2)s1 the viability was 66%.
CN(Cc1cc(-c2ccccn2)no1)C1CCC2(CCNCC2)CC1 has a viability of 65%.
For COc1ccccc1Oc1ncccc1CNC(=O)c1cc(C)oc1C, the viability was 110%.
With CC(=O)N1CCN(C(=O)CC2c3ccccc3CCc3ccccc32)CC1 the viability was 110%.

Sample 2
SMILES: CNC(=N)NCCC[C@H](NC(=O)[C@H](CC(C)C)NC(=O)NNC(=O)[C@H](Cc1ccccc1)NC(=O)[C@H](CO)NC(=O)[C@H](CC(N)=O)NC(=O)[C@@H](Cc1ccncc1)NC(=O)[C@H](N)Cc1ccc(O)cc1)C(=O)N[C@@H](Cc1ccccc1)C(N)=O
Concentration: 0.1 µM
Relative to: DMSO
For sample I colorectal tumour organoid; replicate 1: viability read 102%.
sample B colorectal tumour organoid; replicate 1 — viability: 126%.
It gave 108% for viability (sample J colorectal tumour organoid).
sample C colorectal tumour organoid — viability: 118%.
The viability was 127% (sample C colorectal tumour organoid; replicate 1).
It gave 115% for viability (sample I colorectal tumour organoid).
sample B colorectal tumour organoid; replicate 2 — viability: 105%.

Sample 3
Organism: Sarcocystis neurona
Observed: parasite growth
Concentration: 10 µM
Time: 96 h
Relative to: untreated
O=c1c2ccccc2[se]n1-c1ccccc1: “log2 fold change” 0.29.
CCCCCCNC(=O)n1cc(F)c(=O)[nH]c1=O — result for “log2 fold change”: -2.58.
For O=C(O)CCCc1ccc(N(CCCl)CCCl)cc1, “log2 fold change” read -0.12.
For O=c1c(-c2ccccc2)c1-c1ccccc1, “log2 fold change” read -1.69.
CC[C@]1(O)CC[C@H]2[C@@H]3CCC4=CCCC[C@@H]4[C@H]3CC[C@@]21C — result for “log2 fold change”: 0.37.
Oc1cc(Cl)ccc1Oc1ccc(Cl)cc1Cl: “log2 fold change” -0.29.
For CN1CCN(CC/C=C2/c3ccccc3Sc3ccc(S(=O)(=O)N(C)C)cc32)CC1, “log2 fold change” read -1.87.
For O=C1Nc2ccc(Cl)cc2C(c2ccccc2Cl)=NC1O (centres unmarked), “log2 fold change” read 0.31.

Sample 4
Cell line: HEK-293T
Organism: VSV pseudotyped with VSV-G
Concentration: 10 µM
Time: 16 h
For NS(=O)(=O)c1cc(C(=O)O)c(NCc2ccco2)cc1Cl, the pseudovirus infection was 90.1%.
With CCOC(=O)N1CCC(=C2c3ccc(Cl)cc3CCc3cccnc32)CC1 the pseudovirus infection was 114%.
CCCN[C@H]1CCc2nc(N)sc2C1 gave a pseudovirus infection of 86.7%.
For Clc1ccc2c(c1)CCc1cccnc1C2=C1CCNCC1, the pseudovirus infection was 83.6%.
For Clc1ccc(COC(Cn2ccnc2)c2ccc(Cl)cc2Cl)cc1 (centres unmarked), the pseudovirus infection was 127%.
CC(C)NCC(O)COc1cccc2ccccc12 (centres unmarked) gave a pseudovirus infection of 114%.
CC(C)c1cccc(C(C)C)c1O has a pseudovirus infection of 121%.
CCCCc1oc2ccccc2c1C(=O)c1cc(I)c(OCCN(CC)CC)c(I)c1 gave a pseudovirus infection of 118%.
CC(C)(C(=O)O)c1ccc(C(O)CCCN2CCC(C(O)(c3ccccc3)c3ccccc3)CC2)cc1 (centres unmarked) has a pseudovirus infection of 94.6%.
With CN[C@H](CC(C)C)C(=O)N[C@H]1C(=O)N[C@@H](CC(N)=O)C(=O)N[C@H]2C(=O)N[C@H]3C(=O)N[C@H](C(=O)N[C@H](C(=O)O)c4cc(O)cc(O)c4-c4cc3ccc4O)[C@H](O)c3ccc(c(Cl)c3)Oc3cc2cc(c3O[C@@H]2O[C@H](CO)[C@@H](O)[C@H](O)[C@H]2O[C@H]2C[C@](C)(N)[C@H](O)[C@H](C)O2)Oc2ccc(cc2Cl)[C@H]1O the pseudovirus infection was 95.4%.
COc1ccc(CCN(C)CCCC(C#N)(c2ccc(OC)c(OC)c2)C(C)C)cc1OC (centres unmarked) gave a pseudovirus infection of 112%.

Some of these lines once more (sample 1):
CS(=O)(=O)c1ncc(CN2CCCCC2c2nccs2)n1CCCc1ccccc1 (centres unmarked) has a viability of 110%.
For CCOC(=O)N1CCN(C2CCCN(C(=O)c3cc(C)nc(C)n3)C2)CC1 (centres unmarked), the viability was 114%.
COc1cccc2c1OCC(C(=O)NCCSc1nnnn1C)C2 (centres unmarked) has a viability of 86%.
With CC(c1cccc(-c2ncc(F)cn2)c1)N(C)C (centres unmarked) the viability was 81%.
CC(C)CCNC(=O)c1cccc(Nc2ccc(-c3ccccc3)nn2)c1 gave a viability of 71%.
With O=C(O)c1cnc(/C=C/c2csc(-c3ccco3)n2)s1 the viability was 66%.
For COc1ccccc1Oc1ncccc1CNC(=O)c1cc(C)oc1C, the viability was 110%.
